Assay results gathered from unrelated publications.
Each numbered part is a random draw from the data of one study; scales do not carry over between parts. Positions count from the first letter of the parent shown.

Block 1
Target: Interferon regulatory factor 7, full length, phosphomimetic (IRF7, Homo sapiens, UniProt Q92985, residues 1-503, S471D/S472D/S475D/S476D/S477D/S483D/S484D/S487D)
Sequence of UniProt Q92985 (whole entry, unmodified, looked up): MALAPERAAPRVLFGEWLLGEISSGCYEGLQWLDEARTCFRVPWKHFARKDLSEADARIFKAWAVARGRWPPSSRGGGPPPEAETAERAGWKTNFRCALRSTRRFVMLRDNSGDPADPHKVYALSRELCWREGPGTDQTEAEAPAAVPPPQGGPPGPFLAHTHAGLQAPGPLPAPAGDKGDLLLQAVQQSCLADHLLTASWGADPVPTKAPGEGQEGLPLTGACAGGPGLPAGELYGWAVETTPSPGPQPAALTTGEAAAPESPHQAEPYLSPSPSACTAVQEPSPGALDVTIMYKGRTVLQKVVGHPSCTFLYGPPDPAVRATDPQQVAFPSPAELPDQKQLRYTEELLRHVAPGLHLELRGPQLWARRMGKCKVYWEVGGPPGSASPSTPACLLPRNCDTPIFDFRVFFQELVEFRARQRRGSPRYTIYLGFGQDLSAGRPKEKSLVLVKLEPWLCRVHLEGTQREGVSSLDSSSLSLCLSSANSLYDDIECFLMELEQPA
Method: protein-binding microarray
Molecule type: double-stranded DNA, one strand shown
Medium: in vitro
Tested at: 2200 nM top
Notes: 60-bp whole probe
Together with: salmon DNA 0.4 mg/ml
Baseline: random background probes
Reading: higher = stronger binding
Shared flanks, not repeated: GCCTAGCAC … GTCTTGATTCGCTTGACGCTGCTG
Strand | fitted relative affinity
TTAGGTCTCGGACTGGATTAGTGCTAG | 0.044 z-score
GACGGGATCGGACTGGGGACGTGCTAG | -0.569 z-score
TTAGAACTCAGACTGGATTAGTGCTAG | -0.452 z-score
GACGGACTTGGGTTTCGGGACGTGCTA | 0.825 z-score
TGTGGGTTTCGGTGTGGGAGGTGCTAG | 2.39 z-score
GACGGTATCGGGACTGGAGACGTGCTA | -0.437 z-score
TTAGATTACAGTATCGATTAGTGCTAG | 0.174 z-score
TTAGATTTCAGTTCCGTTTAGTGCTAG | 2.86 z-score
TCAAGAGTAGCTTTCTGACTGTGCTAG | 0.171 z-score
GACGGTCTCGGTATTGGGACGTGCTAG | 0.27 z-score
TTAGGTATTGGGACTGGGTTAGTGCTA | -0.363 z-score
TTAGATATCAGTATCGAGTAGTGCTAG | 0.087 z-score
TCAACCCTCCCTCTGTAACTGTGCTAG | 1.46 z-score
TCACCTTTATGTACTCTCACTGTGCTA | 1.56 z-score
GACGGTACCGGGTTTCGGGACGTGCTA | 0.875 z-score
GTCGATCTCAGTCTCGAGACGTGCTAG | 0.821 z-score
TCACTTCTGGACTGTTTGACTGTGCTA | 1.45 z-score
GACGGACTGGGGTTCCGGGACGTGCTA | -0.916 z-score
TTAGGACTGGATTTCGGTTAGTGCTAG | 2.21 z-score
GACGATTTCAGTCTCGAGCCGTGCTAG | 0.65 z-score
TTAGGTTTCTGGACTGGGTTAGTGCTA | 0.799 z-score
TTAGTTATCCTACTGCTTTAGTGCTAG | 1.15 z-score
TCAACTCTGGAGGTTGAGACTGTGCTA | -0.487 z-score
TCACCCATGAGTCTCAAACTGTGCTAG | 0.633 z-score
TTAGGTTTCCCTATCCTTTAGTGCTAG | 1.98 z-score

Block 2
Target: CCNB3, cyclin fold, Cln2 fusion (human)
Method: yeast growth competition, sequencing
Medium: yeast
Notes: weak parent motif
Baseline: not given
Reading: higher = stronger binding
Starting sequence: REPIN1 docking peptide (human); QSFRGWVALVLHL
Change | normalised enrichment score
QSFRGWVALALHL [V10A] | 0.245
QSFRGWVALVAHL [L11A] | 0.79
ASFRGWVALVLHL [Q1A] | 0.396
QSFRGWVALVLAL [H12A] | 0.193
QSFRAWVALVLHL [G5A] | 0.754
QSFRGWAALVLHL [V7A] | 0.989

Block 3
Target: POU domain, class 5, transcription factor 1, POU domain (Pou5f1, Mus musculus, UniProt P20263, residues 131-289)
Sequence of UniProt P20263 (131-289, looked up): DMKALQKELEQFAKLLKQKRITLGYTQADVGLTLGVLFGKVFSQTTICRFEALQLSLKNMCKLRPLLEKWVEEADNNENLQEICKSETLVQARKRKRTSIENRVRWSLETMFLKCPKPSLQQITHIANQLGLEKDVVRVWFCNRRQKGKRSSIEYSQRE
Method: Spec-seq
Molecule type: double-stranded DNA, one strand shown
Medium: in vitro
Tested at: not given
Notes: whole probe, mean of replicates
Baseline: not given
Reading: lower = stronger binding
Shared flanks, not repeated: GAGTCGTCTCGTCAGCAC … CCGTAGAGCACTCAGGTC
Strand | relative binding energy
GGTCTAAT | 0.939 ln ratio
ATCTCCAT | -0.912 ln ratio
ATCGCTAT | 0.657 ln ratio
ATTACGAT | 0.419 ln ratio
ATAGCTAT | 0.452 ln ratio
ATGCTCAC | 0.459 ln ratio
GTTATAAT | 0.374 ln ratio
GCCATAAT | 0.611 ln ratio
ATGCATTC | -0.684 ln ratio
ATTCATAT | -0.704 ln ratio
GTGGTAAT | 0.453 ln ratio
GGCATAAT | -0.206 ln ratio
GCCGTAAT | 0.592 ln ratio
ATGCCATT | 0.376 ln ratio
CTCCTAAT | 0.856 ln ratio
ATTTTTAT | 0.308 ln ratio
ATCCGCAT | 0.0422 ln ratio
CCCATAAT | 0.132 ln ratio
CGCGTAAT | 0.641 ln ratio
GACGTAAT | 0.549 ln ratio
TGCTTAAT | 0.488 ln ratio
ATGCGGCG | 0.693 ln ratio
ATGCCGCG | 0.889 ln ratio

Block 4
Target: RNA binding protein fox-1 homolog 2, RRM domain, GST-SBP tag (RBFOX2, Homo sapiens, UniProt O43251-10, residues 100-194)
Method: RNA Bind-n-Seq
Molecule type: RNA
Medium: in vitro
Tested at: 365 nM
Notes: natural RNA segment, single round, ends assumed
Baseline: no-protein control
Reading: higher = stronger binding
Shared flanks, not repeated: GGGAGUUCUACAGUCCGACGAUC … UGGAAUUCUCGGGUGCCAA
Target sequence (chain): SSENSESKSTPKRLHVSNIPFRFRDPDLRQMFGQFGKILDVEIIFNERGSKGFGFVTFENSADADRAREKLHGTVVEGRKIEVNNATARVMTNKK
Strand | RBNS enrichment (R)
AGAACCCACCAGGAGCAGCAGAGUCCCUCUCUGGGAAGGCAGGCUCCCUGAAAUGUGGCAUCAGCAUGAAAACAAGCAGCCUGUCUUUCCUCAUUAACUGGGAGUCCCAC | 6.92
CAGGCCUCUUGUCCUCUCCCCAGUGGCUCCAGGCCUCACUAGUGGCAAGGGCAGGAUGAGGCUGCACCGCUGGGAAGAGUCUAUCUAAGCUCUUGGCUUGGAGUCCCGUG | 0.497
GAAUCUGCAUAUUAAUUACCUGAUGAUUAACUUAGAAAAGAGAUGGGAACUUAUUAUACAUGGACAUUUUUGAAUAUGCCUUAAUUUAGAAACUGAAAAAUAAUCCAGUG | 0.932
CUCAUAAGAAGCAAUAAAUGCAUAAAGCAUUAUAUUAAAAUACCAGGGUUACUUAUGUCAUUGACAGGGAAAAGACUUUGUAUAAACAAUUAUGCACCAUCUAUUUUUGU | 0.421
UCUUGCUAGAGAAAACAUAUAUUAAACUGUAACUUUUUCUAAAUUUAAAAGAAGUUUUAAGAUAGAUAUUAAUAUGAAGUGUGUAAUAUUUCUUUUGAGGGUCAAAUAUU | 0.876
CUUCGGGGCUUAGGCCACCGCUCCCUGUCCCCAGAGGAGAUAGCCCCAGAUGGACUGGAAUGUUGUGGCAUGAGAGCGCAUGUGUGCGAUGGCCCCGCUGUGGUCCCCUC | 6.59
ACCCCCACACACGUCAUCUGCAUUGUUAUUGGAGCCUGUACUUAGAGGGAUUAAGCCCACACCCUGGCUUCCAUUCCAUAUCAGGUACAGGAUUUGAUGUUAUUAACAUU | 0.499
GAUCAACUGUGUCUUAAGGCUCUCCAGCCUAUGCAUACUGUAUCCUGCUUCAGACUUAGGUACAAUUGCUCCCCUUUUUAUAUAUAGACACACACAGGACACAUAUAUUA | 0.379
GCAUCAAUAAAUCCAUUAUCCAGUUUUUGAAAAAUCAACUCCAAGGACUGGGUUUAUCUUUCAGUUGACAAAAAUCCAAGUUGUCUUUUGCUAGAAUAAAGCAGAAGGGC | 0.33
UUGUUCUUCCACCCACCCUCUCUUUUUCUUUUUCUUUCAAGACAGGGAUUCUACGUGUAGCCCUGGCUGACCUAGAAUUAGCUCUGAAGACCAGGCUGACCUUGAACUUA | 0.252
CUCUCCCUCCUCCGGCUGUGACUGGCAGAUUGUCACCACAGUAGAGAACCUUUCCCCUGUACUUUUCUUUGGCCCCAUUGUUUAAAAGGGGAAAAUGGCCUUUUUAAACC | 1.1
AGGAUGACGGCUGCUCUGAUAUGGUGCUCUUCUGAGGUGGCAUAAGGGCUGGCCCUUAUUUGCUCUCCCUCCUUCGACUUGCAGAAAUUAAUUUAAUUAAUUAAUUUACU | 0.444

Excerpt of the above (block 4):
Strand | RBNS enrichment (R)
AGAACCCACCAGGAGCAGCAGAGUCCCUCUCUGGGAAGGCAGGCUCCCUGAAAUGUGGCAUCAGCAUGAAAACAAGCAGCCUGUCUUUCCUCAUUAACUGGGAGUCCCAC | 6.92
UCUUGCUAGAGAAAACAUAUAUUAAACUGUAACUUUUUCUAAAUUUAAAAGAAGUUUUAAGAUAGAUAUUAAUAUGAAGUGUGUAAUAUUUCUUUUGAGGGUCAAAUAUU | 0.876
AGGAUGACGGCUGCUCUGAUAUGGUGCUCUUCUGAGGUGGCAUAAGGGCUGGCCCUUAUUUGCUCUCCCUCCUUCGACUUGCAGAAAUUAAUUUAAUUAAUUAAUUUACU | 0.444
GAUCAACUGUGUCUUAAGGCUCUCCAGCCUAUGCAUACUGUAUCCUGCUUCAGACUUAGGUACAAUUGCUCCCCUUUUUAUAUAUAGACACACACAGGACACAUAUAUUA | 0.379
CUCAUAAGAAGCAAUAAAUGCAUAAAGCAUUAUAUUAAAAUACCAGGGUUACUUAUGUCAUUGACAGGGAAAAGACUUUGUAUAAACAAUUAUGCACCAUCUAUUUUUGU | 0.421
CAGGCCUCUUGUCCUCUCCCCAGUGGCUCCAGGCCUCACUAGUGGCAAGGGCAGGAUGAGGCUGCACCGCUGGGAAGAGUCUAUCUAAGCUCUUGGCUUGGAGUCCCGUG | 0.497
GCAUCAAUAAAUCCAUUAUCCAGUUUUUGAAAAAUCAACUCCAAGGACUGGGUUUAUCUUUCAGUUGACAAAAAUCCAAGUUGUCUUUUGCUAGAAUAAAGCAGAAGGGC | 0.33
CUUCGGGGCUUAGGCCACCGCUCCCUGUCCCCAGAGGAGAUAGCCCCAGAUGGACUGGAAUGUUGUGGCAUGAGAGCGCAUGUGUGCGAUGGCCCCGCUGUGGUCCCCUC | 6.59
